Measurements of several laboratories.
A part holds a random share of what one study measured.

Sample 1 — technique: EMSA with sequencing; molecule type: double-stranded DNA, one strand shown; medium: in vitro; tested at: 10 and 20 nM; reference: negative control set to 0; direction: higher = stronger binding
Target: Hepatocyte nuclear factor 3-alpha (Foxa1, Mus musculus, UniProt P35582, residues 1-468, full length assumed)
Chain of UniProt P35582 (whole entry, looked up): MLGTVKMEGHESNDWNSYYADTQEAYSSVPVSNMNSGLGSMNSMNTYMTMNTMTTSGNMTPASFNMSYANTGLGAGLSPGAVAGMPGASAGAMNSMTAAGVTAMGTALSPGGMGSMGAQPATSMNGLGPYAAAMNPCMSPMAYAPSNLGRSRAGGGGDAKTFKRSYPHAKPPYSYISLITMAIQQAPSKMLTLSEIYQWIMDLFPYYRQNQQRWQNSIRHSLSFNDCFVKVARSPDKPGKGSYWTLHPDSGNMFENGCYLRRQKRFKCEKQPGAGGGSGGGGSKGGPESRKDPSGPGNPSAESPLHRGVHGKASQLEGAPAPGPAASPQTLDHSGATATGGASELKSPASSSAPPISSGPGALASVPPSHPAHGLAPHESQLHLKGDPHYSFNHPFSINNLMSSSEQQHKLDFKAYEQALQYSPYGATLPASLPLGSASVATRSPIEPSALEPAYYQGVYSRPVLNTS
Setting: whole designed probe, mean of two concentrations, ends assumed
For `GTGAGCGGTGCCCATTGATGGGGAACGGAAGTCTGCAATGCTTTGAACAGCAGGGTGTGGGAGGAAGTGTTGGCCCTACTCACCCTGCCTGACCTCCCTGGGCTGTGACGTCAGAGCTCTGTTTACATAGCTGAGGGACTGGGAATGCTGGAGTGGAGGAAGGAGGTGATGAATGATTCAGGAGGACACACAACATCCCTGCTTTTCTTTCCTGCTGGCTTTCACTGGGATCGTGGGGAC`, “normalised bound fraction” read 0.4 ratio.
For `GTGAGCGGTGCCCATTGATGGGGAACCTATGTGCTGCCCCCAGAGGTGGAGTGTACAGAGGCAGGCAGGCTTCCTTGAGCTGCAGTGAGTTCCACCCAGTTTGAGCTTCCTGGCTGCTTTGTTTACCTACTCAAGCCTCAGCAATGGCGACGCCCCTCCCTCAGCCTGGCTGCTGTCTTGCAGTTAGATCTCAGACTGCTGTGCCAGCAGTGAGCAAGGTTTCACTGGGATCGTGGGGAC`, “normalised bound fraction” read 0.396 ratio.
Under “normalised bound fraction”, `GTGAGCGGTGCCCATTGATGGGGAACCATGTACAAACAAAATATGGGTTGTGTAATTTCAGTAATTCCATGTACAAGTTAAACACTCTGATATTTGCATTGCACAATATTTAAAATGTCGTAAACATGAATGCTAACAATCTTTTTTTTTTTTCCTGAGACGGAGTCTTGCTCTATCGCCCAGGCTGGAGTGCAGCGGCACAATCTCTGCTTACTGCCATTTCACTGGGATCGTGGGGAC` is recorded as 0.373 ratio.
`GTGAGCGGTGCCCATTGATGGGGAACTACCATTCAAGAAACCTTTTTTTTTTCTTTGCGTCTGTGAGACATATGAGAAAATCAATAAATTTACTTTCTTGGAAAAATAAACACTTCCTATGTAAACAAACATAGACCTTTAGAGCAGTATAAATTGTTTGTGAAAATAGTTTAATTGCAGCAAACACACAGAAAGGATTAACTTATTTTCAGATTTGGTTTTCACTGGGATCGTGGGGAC` — result for “normalised bound fraction”: 0.543 ratio.
Under “normalised bound fraction”, `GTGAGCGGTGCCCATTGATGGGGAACATCTTCCCCCTCTCCTCATCATACGTCCCGCCCCTTCCCGGGTTATTTGCAGATAGGAAAATAAATAAAGCCGGCATTCGTTAACCCTCTTCTGGCGCAAACTGCTGTTTGCTCTGGATGAATCATGGTCCTTTGGCGACGCCAGGCTCCGGGAGAGCAAAGCACCGTGTCAGGGCCATGATCCGGGGTGGCCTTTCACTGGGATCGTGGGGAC` is recorded as 0.336 ratio.
Under “normalised bound fraction”, `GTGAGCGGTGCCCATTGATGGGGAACTATACTTGCATTTAATTTATACTAATTCTACTATGTGTTTCACCAAAAATAAATTGAAAAGGATACTGCTCACTCAGTGAACACATGCTCCAGAGTAAACATGAAATGAGCAATGTGAATGGGGCATTCACGTTTCACAAATTGAACAGTTTTGATGGTGAGGGCAAAGTGTCACTCACCCTTATGCTTATGATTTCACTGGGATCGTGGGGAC` is recorded as 0.253 ratio.

Sample 2 — technique: protein binding microarray; molecule type: double-stranded DNA, one strand shown; medium: in vitro; tested at: not given; reference: not given; direction: higher = stronger binding
Target: Histone acetyltransferase KAT6A, both winged helices, GST fusion (KAT6A, Homo sapiens, UniProt Q92794, residues 1-181)
Setting: 8-mer, flanks averaged, mean of 2 arrays, mostly near background
Residues (chain): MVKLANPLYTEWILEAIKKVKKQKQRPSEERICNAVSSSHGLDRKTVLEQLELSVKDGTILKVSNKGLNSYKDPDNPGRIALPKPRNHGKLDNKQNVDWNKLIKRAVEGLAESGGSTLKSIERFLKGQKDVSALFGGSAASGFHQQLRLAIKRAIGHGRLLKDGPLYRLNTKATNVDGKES
`ATAAAAAT` gave an E-score of -0.0488.
For `ACCAAATA`, the E-score was -0.094.
For `ACATCCTG`, the E-score was 0.00184.
`ACTGTGAG` gave an E-score of -0.0853.
The E-score of `AAGGTTCC` is reported as -0.0672.
`AAGTTTTC` gave an E-score of -0.135.
The E-score of `CCCTAGAC` is reported as -0.232.
The E-score of `CATACGGG` is reported as 0.252.
For `AGCTGCGC`, the E-score was 0.183.
`CGTTACAC` gave an E-score of 0.141.
`ACTCTTCA` gave an E-score of -0.133.
For `AGTATTTG`, the E-score was -0.181.
`ACGTTCGC` gave an E-score of 0.137.
`GATGAGAA` has an E-score of -0.157.
With `CAGTGCGG` the E-score was 0.251.
For `CTGTTATA`, the E-score was -0.067.
With `CCGAAACC` the E-score was 0.0232.
With `CTGAATGC` the E-score was -0.0242.

Sample 3 — technique: RNA Bind-n-Seq; molecule type: RNA; medium: in vitro; tested at: 365 nM; reference: no-protein control; direction: higher = stronger binding
Target: RNA binding protein fox-1 homolog 2, RRM domain, GST-SBP tag (RBFOX2, Homo sapiens, UniProt O43251-10, residues 100-194)
Setting: natural RNA segment, single round, ends assumed
Construct (chain): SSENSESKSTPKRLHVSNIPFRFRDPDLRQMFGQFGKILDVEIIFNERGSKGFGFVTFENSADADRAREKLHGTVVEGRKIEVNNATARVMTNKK
`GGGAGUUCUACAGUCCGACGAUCUUUUCGGGAGUCAGGGGAGGAGAUGACUUUGCUUCUGUGCACAGCCCCGUCUUCCAGGAGCCACAACUCAGAAGAAAAGGGUGCUCAGACUUUUGUUAUACACAUUUGCUUGGAAUUCUCGGGUGCCAA`: “RBNS enrichment (R)” 0.611.
`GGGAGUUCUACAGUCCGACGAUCCAGGGUAGAGAAUUUGCAGGCGGUGCAGACAGACUUUAGCUCCGAUCCACUGCAGAAAGUUGUGUGCUUCAACCACGAUAAUACCCUGCUUGCCACUGGAGGAACAGAUGUGGAAUUCUCGGGUGCCAA`: “RBNS enrichment (R)” 0.586.
For `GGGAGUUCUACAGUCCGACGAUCAGUUAAUCAACAAGUAUUUAUUAUGUGCUGAUAUCUUUGUUUUAGAUGCUUUAAAGGAGACAGGAAUAUAAUUAUUGAGUAUAGAAGCAUCAGAAACUAUUAAAAUUAAGUGGAAUUCUCGGGUGCCAA`, “RBNS enrichment (R)” read 0.689.
For `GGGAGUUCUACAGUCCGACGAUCAAUAAGUGGAAAAUACGGGAUGUACCCCUGGGGGAAAAGCCUGGGUUGGGUUUAGAAAGAUCUCAGGAAAAUGAGUUUCUCUUCCCUCAGGGUGGCUGUGAUACAGGUUCUGGAAUUCUCGGGUGCCAA`, “RBNS enrichment (R)” read 0.676.
`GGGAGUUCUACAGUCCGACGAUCUGUGGCCAUAUGAACUGACUAGAUGGCUAAUAUGGACACUUUGGGUAUUUCUAAUGCCUGUUCAGGGCUGGUUUUCUGCAUGCACGGGUAUACACAUAAUGCAGUGCCAUUGGAAUUCUCGGGUGCCAA`: “RBNS enrichment (R)” 1.97.
For `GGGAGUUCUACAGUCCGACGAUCGCCACCACACCAUCACCAUCGACAGAACAGUCCUUAAUCCAGAAACCUGAAAUGAAGGAAGAGGAGACUCUGCGCAGAGCACUUUGGGUCCGGAGGGCGAGACUCCGGCGUGGAAUUCUCGGGUGCCAA`, “RBNS enrichment (R)” read 0.343.
`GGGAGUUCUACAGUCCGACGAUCAGCUGGGCAUGGGGCUGACGGAGAUGACCAAGCCUUGGUCUGCUCUCUAGCAGCUUCCACAGACUUGGCUCGUGGCCUUCCUUAUAUCCACUGGGAACAAACAGCCUCGCUGGAAUUCUCGGGUGCCAA`: “RBNS enrichment (R)” 0.183.
Under “RBNS enrichment (R)”, `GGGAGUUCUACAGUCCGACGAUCGAAUGUUUGACAGUCACAGAAGGUUCCUGCAGCAGAUGCCUCUUUUAGCCAUUUCUCAUUUUUUUCCUCAAAUUUUACCUACUGAGGCUCAAGCCUUCACAGUGAGCUGAUGGAAUUCUCGGGUGCCAA` is recorded as 0.469.
For `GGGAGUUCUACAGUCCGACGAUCAACAUUCAUUGUAUUUUGGUCUUGAGAAAUGCCUAUAGUUUUCCAAAUUAUUCUUGUACAGUUUUAUUUGUACAGUUCAGUGUAACCACCUAUCAUCUUGUUAACACUAGUGGAAUUCUCGGGUGCCAA`, “RBNS enrichment (R)” read 0.488.
For `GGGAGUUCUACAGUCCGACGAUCCUUACAAUGUCAGUAUUUGGGAUGUCGCUGCAUUUUUUUUUUCAAUUUAUUUGGAGUCUCCCUUUAUUCCUGCCCCCGCCCCCAGAUAUAUGAAAAUAUGCAAUACCUGCUGGAAUUCUCGGGUGCCAA`, “RBNS enrichment (R)” read 0.669.
For `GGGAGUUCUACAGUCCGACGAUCGCUGUCUUCAGAACUCUUGGAAAUCUUUACACAUGCGAGUGCUAACCACUUUGAGCAAGGCUGCCUUCUUGUAGAUGACUUGCUGUUCUUUAUGACAGGGAUCAGUGGCAUGGAAUUCUCGGGUGCCAA`, “RBNS enrichment (R)” read 0.778.
`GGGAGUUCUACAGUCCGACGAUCUUUCCACAAAAUCUGUCCAAAGGAGGCUGGCAGGUAUGGAAGGGUUUGUGGCUGGGGGCAGGAGGGCCCUACCUGAUUGGUGCAACCCUUACCCCUUAGCCUCCCUGAAAUGGAAUUCUCGGGUGCCAA`: “RBNS enrichment (R)” 0.611.

Sample 4 — technique: RNA Bind-n-Seq; molecule type: RNA; medium: in vitro; tested at: not given; setting: RNA with constant flanks, ends assumed; reference: input RNA pool; direction: higher = stronger binding
Target: RING finger protein unkempt homolog, zinc fingers 1-6, GST-SBP tag (UNK, Homo sapiens, UniProt Q9C0B0, residues 30-357)
Chain of UniProt Q9C0B0 (30-357, looked up): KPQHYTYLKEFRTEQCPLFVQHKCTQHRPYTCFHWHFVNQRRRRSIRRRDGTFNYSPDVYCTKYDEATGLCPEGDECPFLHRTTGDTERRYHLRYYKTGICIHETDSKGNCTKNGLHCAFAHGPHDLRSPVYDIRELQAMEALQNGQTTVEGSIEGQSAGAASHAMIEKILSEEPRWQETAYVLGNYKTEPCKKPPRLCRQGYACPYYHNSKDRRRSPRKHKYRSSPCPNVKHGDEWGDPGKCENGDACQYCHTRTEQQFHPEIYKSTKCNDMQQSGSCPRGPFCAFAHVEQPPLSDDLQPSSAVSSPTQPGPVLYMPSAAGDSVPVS
`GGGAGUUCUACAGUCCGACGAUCUGCAAUUGGGUAGUGGACACUUGUUUACAUAAGGGAAGUCGAGAUAACAUGAGUGUUGUAUCCGUUUGCUUUUCAAAUGCCCCCAAGGUCUCAGAGGAAGCCGUGAAGAGAGAUUCAGAGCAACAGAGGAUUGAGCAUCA` gave a bound/input enrichment of 0.221 ratio.
For `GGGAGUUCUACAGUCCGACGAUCUUUAUAUUUAACUAAAUGUAAGGUACGAACUAUGACAUAUUAAACUUUUCUUGCCCUUCCCCGUUCUGAGGUAGAUGUGCACAUAUCUGCCACCACAUUCCAUAUGUGUUGAGUAGUUAACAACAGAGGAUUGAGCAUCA`, the bound/input enrichment was 0.572 ratio.
The bound/input enrichment of `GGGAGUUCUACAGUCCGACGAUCGGAGCCAUUGAUGCUGUUCCUGUUGAUGAAAAUCUUUUCACUGGAGAGGAUUUGGAUGAACCCGAAGAAGAAUUAAAUACACUUGAUUUAGAAGAAUGACACCAAACACAUCGCUGAAAACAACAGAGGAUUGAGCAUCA` is reported as 0.773 ratio.
The bound/input enrichment of `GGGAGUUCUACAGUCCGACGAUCUCCACCAAGAGCCUCUUCCUCGGCCAGAAGCUGAACCUUAUUCACAGUGAAAUCAGUAAUUCCGCCGGCUUUGAGGUGGAGGCCAUAAUCAAUCCUACCAAUGCUGACAUUGACCUUAAACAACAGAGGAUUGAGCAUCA` is reported as 0.123 ratio.
For `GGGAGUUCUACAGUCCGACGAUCGGUUUAGGGUAGGGGUUAAUCUGUUGGGGGUUGAUGUGUUUAGCAAGAAGCUACUCCCCGCUUUUGCUAAAAUAUGGUUGGCACUGCCUCUUGUGGCACAGGCCAUAAUUGUUCCAUAGACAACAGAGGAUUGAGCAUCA`, the bound/input enrichment was 1.49 ratio.
The bound/input enrichment of `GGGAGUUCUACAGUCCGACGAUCUUGAUCAAGUUUUAUAAAUGCCAUUCAUAGGAGCUGUGAUUCUGGCAAAUUAAAGUAAUUCACCGUUUUCUGCAAUUUGAAAUAAAAGCAUUUCCAACUUCUAGAUUAUCAUUUUAUAAACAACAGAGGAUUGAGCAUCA` is reported as 0.827 ratio.
With `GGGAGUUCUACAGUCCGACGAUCGUUUAGAAUUAAUGAAACAGUUGGCGUUCACUGUCAGCAGCAUAGUGUGAUUUUGAAUGAAUCCGGCAGGAAUUCAAGAUUACUACUCUUAGCUCGCUCGCUCUCUCUCUCUCUCCACCGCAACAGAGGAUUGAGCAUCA` the bound/input enrichment was 1.66 ratio.
For `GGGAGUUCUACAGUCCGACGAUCGCACAGAUUCAUCAAUUCAGAGAGGAUUCAUUGGAUAGCGUUCUUUUUUUAAAGAAGAUUGACCGAUGCUGGCAAAACCAUUGCAGACAAAUGAUCAUGAUCAGGAGCAUUUUUUUGUUUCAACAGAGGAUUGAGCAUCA`, the bound/input enrichment was 0.24 ratio.
For `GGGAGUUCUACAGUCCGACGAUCGGAAUAUUCAUUGUACUGAAUAUUACCCUUGUGCUUGCCGCUGUAUUUAAACUUGAAACAGACCGAAGUAUAUGGCCCUUGAUAAGAAUCUAUCGGGGUGGCUUUCUUCUGAUUGAAUUCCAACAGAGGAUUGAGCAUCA`, the bound/input enrichment was 0.106 ratio.
For `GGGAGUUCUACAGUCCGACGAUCGUGGGUCAGGACCCUGUCUUGAGACAGGUGGAAGGAAAAAAUCCAGUCACAAUAUUUUCUCCCGCAACUAAUGAGAUGUGGCGAUCAGGGGAUAGUGAAGUUUACCAACUGGGUGAUGUCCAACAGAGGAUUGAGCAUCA`, the bound/input enrichment was 0.335 ratio.
For `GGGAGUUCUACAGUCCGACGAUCGCAAAAGUUUAUGUCUCAUUGGAUCAACCUGUGACUGCUUUAAAUCUUUUCAAACAAGGCUCCGAUAAGUUUCCAGGAGAAGUAACCCUGCUCUGUGGAAUUGCAAGAAUCUAUGAGGAACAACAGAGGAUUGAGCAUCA`, the bound/input enrichment was 0.142 ratio.
